# Assay results collected from several papers.
# Lines come from different studies, so protocols differ.
# CDK2: Cyclin-dependent kinase 2 (CDK2, Homo sapiens, UniProt P24941)
# CDK2 with cyclin A: Cyclin-dependent kinase 2, with cyclin A (CDK2, Homo sapiens, UniProt P24941)
# CDK2 with cyclin E1: Cyclin-dependent kinase 2, with cyclin E1 (CDK2, Homo sapiens, UniProt P24941)
SMILES,target,assay,conditions,endpoint,value
O=C1Nc2c(Br)cccc2/C1=C1/Nc2ccccc2C1=NO,CDK2,,,IC50,> 10 µM
Cc1cc(-c2cc(=O)c3c(O)cc(O)c([C@H]4CCN(C)C[C@H]4O)c3o2)no1,CDK2 with cyclin A,"enzyme activity, inhibitor",,IC50,0.238 µM
O=c1cc(-c2ccc(O)cc2)oc2c1ccc1occc12,CDK2 with cyclin E1,"enzyme activity, inhibitor, ADP detection",,IC50,> 20 µM
Cc1cc(C)c(S(=O)(=O)N(CC(=O)O)c2ccc(Nc3ccnc(N4CCCC4)n3)cc2)c(C)c1,CDK2,"enzyme activity, inhibitor",,IC50,> 100 µM
Cc1nn(-c2cccc(N)c2)c(=O)c2cnc(Nc3ccc(N4CCNCC4)cc3)nc12,CDK2 with cyclin A,"enzyme activity, inhibitor",,IC50,> 10 µM
O=c1cc(-c2cccc(O)c2)oc2c1ccc1occc12,CDK2 with cyclin E1,"enzyme activity, inhibitor, ADP detection",,IC50,> 20 µM
CC(=O)Nc1cc(-c2c(F)cccc2F)[nH]n1,CDK2 with cyclin A,radiometric,added: 1 µM ATP,IC50,3.4 µM
Cc1nc(C)c(-c2ccnc(Nc3cccc(C#N)c3)n2)s1,CDK2,"average of ITC, Octet and Thermofluor",untagged protein,Kd,1.57 µM
O=C(Nc1cc(Cc2ccccc2)[nH]n1)C1CCC1,CDK2 with cyclin A,radiometric,added: 1 µM ATP,IC50,1.1 µM
CNC(=O)C1CCCN(C(=O)C2CC3CCC2N3C(=O)[C@@H]2C[C@@H](O)CN2C(=O)NCc2cccc(Cl)c2F)C1 (mixture of isomers),CDK2 with cyclin E1,"enzyme activity, inhibitor, mobility shift",,IC50,0.421 µM
CCN(CC)CC(=O)Nc1cccc(-n2cc(-c3ccc4ccc(-c5cn(-c6cccc(NC(=O)CN(CC)CC)c6)nn5)cc4c3)nn2)c1,CDK2 with cyclin A,,,IC50,> 10 µM
O=C(Nc1cc(Cc2ccccc2)[nH]n1)c1ccccc1,CDK2 with cyclin A,radiometric,added: 1 µM ATP,IC50,3 µM

# Some of these lines once more:
SMILES,target,assay,conditions,endpoint,value
Cc1cc(C)c(S(=O)(=O)N(CC(=O)O)c2ccc(Nc3ccnc(N4CCCC4)n3)cc2)c(C)c1,CDK2,"enzyme activity, inhibitor",,IC50,> 100 µM
